Results gathered from unrelated publications.
Compare with care: the assays were run in different laboratories. ± marks the error that the study gave.

O=C(Cn1ccnc1[N+](=O)[O-])NCc1ccccc1 has an IC50 of 2900 ± 600 nM (Trypanosoma cruzi; growth; Y, epimastigote; 72 h).
Cc1ccc(Cn2cc(/C=N/N3C(=O)CSC3=S)c3cc([N+](=O)[O-])ccc32)cc1 gave an IC50 of greater than 58000 nM (Trypanosoma brucei gambiense; trypomastigotes, IL1922).
For CC(C=CC1(C)C(C)CCC(=O)C1C)=CCc1c(O)c(C=O)c(C)c(Cl)c1OCC(=O)O (stereo not shown), the IC50 was 43500 nM (Wickerhamomyces anomalus; O2 uptake, inhibitor; mitochondria; with: succinate 15 mM).
C#CCn1cc(/C=N/N2C(=O)CSC2=S)c2cc([N+](=O)[O-])ccc21 has an IC50 of greater than 59000 nM (Trypanosoma brucei gambiense; trypomastigotes, IL1922).
The IC50 of C/C=C(C)/C=C/C=C/[C@H](OC)[C@@H](C)[C@@H](OC)[C@@H](C)CCc1oc2c(O)c(OC)cc(OC)c2c(=O)c1C is reported as 30 nM (Wickerhamomyces anomalus; O2 uptake, inhibitor; mitochondria; with: duroquinol 1 mM).
For N#CSCCOc1ccc(Oc2cccnc2)cc1, the IC50 was 7400 nM (Trypanosoma cruzi; parasite growth; Vero; 72 h, intracellular, amastigote).
COc1ccc(C[C@H](N)C(=O)N[C@H]2[C@@H](O)[C@H](n3cnc4c(N(C)C)ncnc43)O[C@@H]2CO)cc1 gave an IC50 of 505 ± 84.9 nM (Trypanosoma cruzi; PrestoBlue; trypomastigote; 48 h, DMSO stock sample).
The IC50 of O=C1CSC(=S)N1/N=C/c1cn(Cc2ccccc2)c2ccc([N+](=O)[O-])cc12 is reported as greater than 60000 nM (Trypanosoma brucei gambiense; trypomastigotes, IL1922).
The IC50 of CCOc1cccc2sc(N(Cc3cccnc3)C(=O)C3CCCCC3)nc12 is reported as 840 ± 170 nM (Trypanosoma cruzi; imaging; 3T3 fibroblasts, Tulahuen amastigote; 48 h).
With CCOC(=O)c1c(N)sc2c1CCC(c1ccccc1)C2 (stereo not shown) the IC50 was 44.1 ± 1.28 µg/mL (Enterococcus faecalis; bacterial growth; ATCC 29122).
